# Experimental data collected from several papers.
# Each numbered part is a random draw from the data of one study; scales do not carry over between parts. Substitutions count along the parent as printed.

# Set 1 — technique: RNA Bind-n-Seq; form: RNA; sample: in vitro; tested at: not given; relative to: input RNA pool; direction: higher = stronger binding
# Target: RING finger protein unkempt homolog, zinc fingers 1-6, GST-SBP tag (UNK, Homo sapiens, UniProt Q9C0B0, residues 30-357)
# UniProt Q9C0B0, sequence (30-357, looked up): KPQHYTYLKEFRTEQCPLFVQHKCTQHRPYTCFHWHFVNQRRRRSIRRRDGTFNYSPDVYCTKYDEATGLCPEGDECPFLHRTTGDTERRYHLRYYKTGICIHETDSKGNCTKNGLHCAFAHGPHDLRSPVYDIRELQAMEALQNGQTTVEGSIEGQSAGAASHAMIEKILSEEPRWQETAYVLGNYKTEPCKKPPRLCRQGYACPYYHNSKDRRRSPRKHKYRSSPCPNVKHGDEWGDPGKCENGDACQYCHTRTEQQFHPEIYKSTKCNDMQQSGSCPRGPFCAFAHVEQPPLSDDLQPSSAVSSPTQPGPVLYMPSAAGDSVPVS
# Setting: RNA with constant flanks, human-mouse chimeric sites, ends assumed
# Constant ends, left off below: GGGAGUUCUACAGUCCGACGAUC … CAACAGAGGAUUGAGCAUCA
Oligonucleotide,bound/input enrichment
UCUGGUCACACUCGUGUGUAUGGUGUUUGCUUUGUGGACACUUCACUGGGCAAGUUUUUCAUAGGUCAGUUUUCGGAUGACCGCCACUGUUCGAGAUUUAGGACGCUAGUGGCUCACUAU,0.326 ratio
CAGUCCCCGUGUCCCAGGGGACAAUGUUGUGAACAAAAACUCAAAGCGGACCCUCUAUUGUAGUUCUUGAUUCUCGAAAUGUGCUAUUAUUGUUUGUCUUUUUUUUUUUUUUUUUAAAGA,1.52 ratio
AACAGAUUGUCUUUAAGCAUUCCAAGCGAGAAUGCUGAAAUAGUCAUUGUUGCCCAUGUGCCUUCUGACUGAGCUUUAAUGCUGUUCCAUGUUACAUCUUUCCUUCACUCCAGAAUUGUU,0.286 ratio
AUCAAAUAUUUUGGGGACAUCAUUAGUGUGGGACAGAGACUGUUGCAAGGAGCUCGGAUUUUAGGAAUUCCAGUUAUCAUAACGGAACAAUACCCCAAAGGACUUGGCAGCACCGUUCAA,0.434 ratio
AACAGAUUGUCUUUAAGGUCAACGUAGGAGAAUGCUGGGGUGAUCAUUGUUGCCCAUGUGCCUUCUGACUGAGCUUUUAAUUAAUUGCAUGUUACAUCUUUCCUUCACUCCAGAAUUGUU,0.119 ratio
UUGCCUGAGAACGAGGAUGAGCUGGAGAGCACCAACAGGCGCUACACCAAGAGGGACUGCAGCACUUUUCUCAGAACUAGUGAGACGGGCAUCGUGGACCAGGUCAUGGUCACUCUCAAC,0.12 ratio

# Set 2 — technique: protein binding microarray; form: double-stranded DNA, one strand shown; sample: in vitro; tested at: not given; relative to: not given; direction: higher = stronger binding
# Target: Histone acetyltransferase KAT6A, winged helix 2, GST fusion (KAT6A, Homo sapiens, UniProt Q92794, residues 85-181)
# Setting: 8-mer, flanks averaged, mean of 2 arrays, mostly near background
# Target sequence (chain): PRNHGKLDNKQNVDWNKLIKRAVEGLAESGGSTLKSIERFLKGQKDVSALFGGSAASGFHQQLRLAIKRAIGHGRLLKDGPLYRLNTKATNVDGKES
Oligonucleotide,E-score
GTACCAGA,0.0191
CATGACAC,0.0725
TACAGGAA,-0.0368
CAGAACTG,0.237
GATCCGAC,0.0293
GAGATCTC,-0.191
ACTAATAT,-0.081
AATGATAT,0.134
AGTTAGCG,0.0504
AGAGATTC,-0.102
CCGCGCCG,0.244
AAAATTCT,-0.0171
AAAACCGT,-0.0824

# Set 3 — technique: RNA Bind-n-Seq; form: RNA; sample: in vitro; tested at: 365 nM; relative to: no-protein control; direction: higher = stronger binding
# Target: RNA binding protein fox-1 homolog 2, RRM domain, GST-SBP tag (RBFOX2, Homo sapiens, UniProt O43251-10, residues 100-194)
# Setting: natural RNA segment, single round, ends assumed
# Constant ends, left off below: GGGAGUUCUACAGUCCGACGAUC … UGGAAUUCUCGGGUGCCAA
# Construct (chain): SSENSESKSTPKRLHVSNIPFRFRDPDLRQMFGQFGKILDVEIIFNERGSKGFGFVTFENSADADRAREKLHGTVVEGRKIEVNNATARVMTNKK
Oligonucleotide,RBNS enrichment (R)
GAAAGAAAAGUGGAUUUGAACUCAGUGUCACAGACUCUUCUGAGUGUUUUAGGGUCACAGCUAGUGUAAGAGGCAUGAAGAAUAGACAUGCAAAAGGGAACGGGUGCACC,1.18
GCACAUCACACACGUUCUCCUUGGAAGAGAGAAGCAGUACAUCCCGGUUGAGAGGUCACAAAGCAUUAGUUUGUGUGUGUGUGUGUGUGUGUGUGUGUGUGUGUGUGUGU,2.81
UGUGUGACCAUAAAAUGCUGGGAGCAUUGAGUUUUGUAAUGAUUUAAUGGGUGAGGAUUGCUUUCUCCAUUAGAGCAUUAAGCUAUAACUAUCAACAUUGUAAACCAAAU,0.443
AGCUCGUCUCUUCCUAGCAAGCAAAGGGUUAAAGAAGCCACCACCUGGGUGUCAGUGGGAAGGAGACAGCAGAGCUCAGGCUUUGCCCUUUGACAGAAACCUAAAGACAC,0.437
CAAGCUACCACGUGCACAGACAGCCCAAUGAGUGGGCCAUUUCUCCACAACCCUGGUGUAAUACAGAGUCCAGCCAUUACCAUUCUCCUGCGUUACUUUGACAUGGGAUU,0.3
ACAGUCCUAGAAGGUAUGUUUUAAGAAUACUGUGUAGUACACAUUAUUGCAACAUACACCUGAGAUUUAACAAGGCCCCAAAUGACAGGAAUGUCAUAACCAUUCACACU,0.219
CUGGUUUCAACUCUACUGCGAAACAAAAAUAGCUCCUUAAAAGUACUGUUCUCCUUCAGUGGCAUGUAGUUAUCUAAUCAAGACACCUCAUUCAAACAAAACCUGCCUUA,0.465
UUCAUGGCUCACCCCUCUGUGUCCAGCAUCUAACCUUUUACUUCUGUGUAGGAAAUAAUUUAAUUACAAGUCCAGGAAUGGUCUGCUCUACUCAUGGGUGGAGGAGACCA,0.401
AUCUGUACAGAUCUAACACUACGACACUCAGUAUUCAUUUUAUUGAAGCAUGCAAGUAAAGCACUUUUUCUAAUUUAUAUAGAGGUAUCUAAUUAACACAGCACAUUGUA,5.08
UCGCAUGGACUGGGAAGUUCUUUUAAAUCAUUAAAUAUUAAGACGACCAUCUCUUCUAUUAAAUUACAGUACAUGUUCUAGACCAUUGAGAUCAAGCCUUUACUCCCUUU,0.319
CUUGUAUCAGAUCCAAAGCUCUAUUGUACAGCAAAUUAUUCUUCAAAAUGAUUAUAACCAGUUGCACCCUGUAUUUCUUUUUGCAGCCAGCACAAUGUGACCCAACUUAA,0.696
UUCUGUAUCAAAAUGGACUGUUCAUAUCAGAGCUGAGAACUAAAGCACUUCGUUCAUUAUCAGAAAACUGGAGGAAUUUAGAGAGAGGAAAUCUACGAUUUCUAAUUACC,0.31

# Set 4 — technique: DHFR PCA, deep sequencing; sample: yeast; added: (+)-ABA 2500 µM; relative to: wild-type fitted maximum; direction: higher = stronger binding
# Target: ABI1, truncated, D143A, DHFR fusion (Arabidopsis thaliana)
# Setting: methotrexate growth selection, single substitutions
# Starting sequence: PYL1, truncated, DHFR fusion (Arabidopsis thaliana); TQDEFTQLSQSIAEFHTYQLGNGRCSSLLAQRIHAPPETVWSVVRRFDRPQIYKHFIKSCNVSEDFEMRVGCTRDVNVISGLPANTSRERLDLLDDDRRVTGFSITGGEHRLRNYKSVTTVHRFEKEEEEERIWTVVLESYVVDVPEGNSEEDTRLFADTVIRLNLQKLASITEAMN; partner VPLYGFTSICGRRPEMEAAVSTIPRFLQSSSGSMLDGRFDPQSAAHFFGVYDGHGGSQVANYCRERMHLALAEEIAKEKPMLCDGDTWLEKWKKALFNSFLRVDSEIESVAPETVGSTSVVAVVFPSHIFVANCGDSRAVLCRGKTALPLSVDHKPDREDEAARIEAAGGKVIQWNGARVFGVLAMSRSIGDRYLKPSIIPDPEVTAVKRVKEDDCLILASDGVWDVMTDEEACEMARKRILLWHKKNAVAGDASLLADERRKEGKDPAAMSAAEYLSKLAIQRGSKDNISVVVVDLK
Variant,relative binding score [%]
F157M,87.5
G21D,99.4
S11W,102
S27F,71.2
E131F,101
F124Y,104
T73E,100
R74K,12.6
T135C,101
T160A,87.9
V145S,82.8
T154W,7.9
N85E,96.2
V145D,16.7
V44M,88.5
E151N,96.2
I52L,95.9

# Set 5 — technique: EMSA with sequencing; form: double-stranded DNA, one strand shown; sample: in vitro; tested at: 10 and 20 nM; relative to: negative control set to 0; direction: higher = stronger binding
# Target: Hepatocyte nuclear factor 3-alpha (Foxa1, Mus musculus, UniProt P35582, residues 1-468, full length assumed)
# UniProt P35582, sequence (whole entry, looked up): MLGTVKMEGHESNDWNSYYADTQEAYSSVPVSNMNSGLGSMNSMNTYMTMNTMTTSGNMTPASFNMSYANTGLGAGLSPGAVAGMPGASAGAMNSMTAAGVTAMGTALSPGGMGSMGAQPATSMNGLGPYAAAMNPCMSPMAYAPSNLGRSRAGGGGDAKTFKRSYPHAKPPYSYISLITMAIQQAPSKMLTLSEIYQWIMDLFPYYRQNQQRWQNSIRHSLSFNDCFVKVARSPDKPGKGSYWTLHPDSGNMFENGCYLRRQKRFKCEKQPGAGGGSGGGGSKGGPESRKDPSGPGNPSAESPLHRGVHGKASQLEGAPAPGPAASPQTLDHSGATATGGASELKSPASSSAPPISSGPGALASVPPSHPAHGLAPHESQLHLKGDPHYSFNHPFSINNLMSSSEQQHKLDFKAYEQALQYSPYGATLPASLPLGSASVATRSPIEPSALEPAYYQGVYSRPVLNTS
# Setting: whole designed probe, mean of two concentrations, ends assumed
# Constant ends, left off below: GTGAGCGGTGCCCATTGATGGGGAAC … TTTCACTGGGATCGTGGGGAC
Oligonucleotide,normalised bound fraction
CCATCTCAGCTGAGGGTACTATCATCCACCCTGTGGCCACATCCAGGAATGTGTGTATCACCTGGGCTCTGAGGATGACATCAGCTCTTCTAAGTCAACAGAATGTCGGGTCTGTTCTAAAAGTCTCATCTGACAAGGAGATCTTTAAGGCTTTACTCCCTTAAAGGCTTTACTCCCATCATGATGGGATAAC,0.181 ratio
ATCTTCCCCCTCTTCCTTGCCCCACCAGCTCACCTACGGGGGTTATTTGCAGATAGGAAAATAAATAAAGCCGGCATTCGTTAACGCAGTTCACGCGCATACTGCTGTTTGCTCTGCATGAATCATGGTCCTTACGCGACGCCAGGCTCCGGGAGAGCAAAGCACCGTGTCAGGCGCATGATCCGGGGTGGCC,0.36 ratio
ATCTTCCCCCTCTTCCTTGCCCCACCAGCTCACCTTCCCGGGTTATTTGCACAAAGGAAAATAAATAAAGCCGGCATTCGTTAACGCAGTTCTGGCGCAAACTGCTGTTTGCTCTGCATGAATCATGGTCCTTACGCGACGCCAGGCTCCGGGAGAGCAAAGCACCGTGTCAGGCGCATGATCCGGGGTGGCC,0.378 ratio
GGAATCTCCGGATGCTCTGCATTCTTAGCATTCTAACAACTTCTTATTTTTCCCTTGCAGAGTTGCCCAAATAGGGACACATCTAGACTTGTTGTTTACATAGCTCTGGGCCGGCTGACTGGCAAACCCCGGATGGAGGGTGCAGACAATTGGCACAGGGCAGAAGGGGTCAGGCCACCGGCAGGAGTGCAGG,0.464 ratio
AGTTTTATTTATTTGCTTTTTATTTATATTGCTTTTTCCTTATTTTCCTCATAGGCCCACTAATAATTTATTTGAAAAATATTTAGTTATTCCATGTTTACTTATTTCAATATAGTCATTTCTATTTTATACAGTAATTTATTTCTATCTGTTTTCCTTAGGATTCTTGATTCTAACAGCTTGAGTTAATGCT,0.52 ratio
AATATTTCAAACACTACGTACCCCAACTGACATTTGAGTAGCAGTTAAGTTCTTGGAACGCTGCCATTTTGATCTGTTACGTAACAGCTCATTGTAAACAGGATGAAATAGGGCAGTTAAAAGACTAATGGTCAGTGAAATCTACAACAGGAATGGAAAGAATTTTCCCCTTAAAAATTTGGAAATCCTTATT,0.0681 ratio
